Published values of several laboratories.
A part holds a random share of what one study measured.

Block 1
Target: Ras GTPase-activating protein-binding protein 1, full length (G3BP1, Homo sapiens, UniProt Q13283)
UniProt Q13283, sequence (whole entry, looked up): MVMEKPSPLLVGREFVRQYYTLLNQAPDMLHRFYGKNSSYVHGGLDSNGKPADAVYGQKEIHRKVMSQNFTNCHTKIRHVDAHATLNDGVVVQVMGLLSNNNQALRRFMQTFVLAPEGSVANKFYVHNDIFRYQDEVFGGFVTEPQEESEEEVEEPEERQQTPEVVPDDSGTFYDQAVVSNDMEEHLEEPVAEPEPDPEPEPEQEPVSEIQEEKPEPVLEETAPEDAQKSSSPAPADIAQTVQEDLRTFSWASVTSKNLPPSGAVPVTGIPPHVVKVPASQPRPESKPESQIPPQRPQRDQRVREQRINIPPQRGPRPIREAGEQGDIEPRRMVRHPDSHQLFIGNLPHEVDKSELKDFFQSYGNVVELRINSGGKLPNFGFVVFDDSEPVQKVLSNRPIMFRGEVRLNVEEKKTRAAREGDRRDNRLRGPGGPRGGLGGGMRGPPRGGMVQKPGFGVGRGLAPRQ
Method: RNA Bind-n-Seq
Molecule type: RNA
Matrix: in vitro
Concentration: 200 nM
Setting: whole 134-nt RNA, ends assumed
Added: 150 mM KCl
Relative to: input library
Direction: higher = stronger binding
With `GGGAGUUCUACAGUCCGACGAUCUGGGAGGUGGAUUUUGUUUAUUUUUUUAGCUCAUUUCCAGGGGUGGGAAUUUUUUUUUAAUAUGUGUCAUGAAUAAAGUUGUUUUUGACAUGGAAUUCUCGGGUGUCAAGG` the log2 enrichment was 0.464.
With `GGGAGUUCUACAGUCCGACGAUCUCCUCAAGUCCUGUGCUACACAUCGUAUGUACCGAAUCGGGCGGCGGGCGGAAAGUAUUAUGUUACGCCGUUCGGAUCUGCACUUCCAGCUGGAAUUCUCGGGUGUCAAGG` the log2 enrichment was -0.625.
`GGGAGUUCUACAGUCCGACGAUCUCCUCAAGUCCUGUGCUACACAUCGUAUGUACCGAAUCGGGCGGCGGGGCGGAAAGUAUUAUGUUACGCCGUUCGGAUCUGCACUUCCAGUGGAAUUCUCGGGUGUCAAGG` has a log2 enrichment of -0.137.
The log2 enrichment of `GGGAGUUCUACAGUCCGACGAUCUCCUGUGCUACACAUCGUAUGUACCGAAUCGGGGAAAAAGGGGUUUUUUUGGGGUGGGGAAAGUAUUAUGUUACGCCGUUCGGAUCUGCAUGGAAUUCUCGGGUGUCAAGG` is reported as 0.838.
`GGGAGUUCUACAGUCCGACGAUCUAACUUUAGAGGAGGAUCUGAUGGAUAUGGCAGUGGACGUGGAUUUGGGGAUGGCUAUAAUGGUUAUGGAGGAGGACCUGGAGGUGGCAAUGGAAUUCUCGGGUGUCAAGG` gave a log2 enrichment of 0.223.

Block 2
Target: RNA binding protein fox-1 homolog 2, RRM domain, GST-SBP tag (RBFOX2, Homo sapiens, UniProt O43251-10, residues 100-194)
Method: RNA Bind-n-Seq
Molecule type: RNA
Matrix: in vitro
Concentration: 365 nM
Setting: natural RNA segment, single round, ends assumed
Relative to: no-protein control
Direction: higher = stronger binding
`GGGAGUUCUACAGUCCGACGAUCUGUCCCUCAGUGCCUUCUCUCAGCUCCCAGGCCAAUGGCGGCCAGCCUUCCCCAAGACAAUGAGGUUUGCCUGCACCCUGGCCUGCUACCUGGACUUUGCCUGGUGCCUUUGGAAUUCUCGGGUGCCAA` — result for “RBNS enrichment (R)”: 0.518.
Under “RBNS enrichment (R)”, `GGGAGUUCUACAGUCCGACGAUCUGCCUGCACAUUUAGUUAAACUGGGCUCAGCAUGCUUGUCCUCAAAAUGUCCAUCCUGGUCACAGCACACAAGAUGGCUAUUGGUCUGCUUUUACCCUACCCUGUACUAUUGGAAUUCUCGGGUGCCAA` is recorded as 4.44.
For `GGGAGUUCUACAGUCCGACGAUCAAGAACGGAAAUGCUGUCUUGUGAGCAUGAAGUGAACGGGCUGUUUUGCUCCAGCCACUUUUCUUGUACAACCACAUGGAUGGAUUAGAUGUCCUCAGGUCUUUUCCAUCUGGAAUUCUCGGGUGCCAA`, “RBNS enrichment (R)” read 1.82.
`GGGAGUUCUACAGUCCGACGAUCGAGGAAAGAUAAGCUCUUCGUGGUGCCCACGAUGCUCAGGUUUGGUAACCCGGGAGUGUUCCCAGGUGGCCUUAGAAAGCAAAGCUUGUAACUGGCAAGGGAUGAUGUCAUGGAAUUCUCGGGUGCCAA` — result for “RBNS enrichment (R)”: 0.772.
Under “RBNS enrichment (R)”, `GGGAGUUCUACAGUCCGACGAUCUGCAGGAUUAAGUUACAAUUAUCUUCUCAGUGAAGGUCAUUUGUGAUGGGGUCUAAUUCUUAUUACUUCAACAAAUAUUGUUUUGACUUGGGGGGAGGGGCUAUAACCCUUGGAAUUCUCGGGUGCCAA` is recorded as 0.677.

Block 3
Target: Interferon regulatory factor 7, full length, phosphomimetic (IRF7, Homo sapiens, UniProt Q92985, residues 1-503, S471D/S472D/S475D/S476D/S477D/S483D/S484D/S487D)
UniProt Q92985, sequence (whole entry, unmodified, looked up): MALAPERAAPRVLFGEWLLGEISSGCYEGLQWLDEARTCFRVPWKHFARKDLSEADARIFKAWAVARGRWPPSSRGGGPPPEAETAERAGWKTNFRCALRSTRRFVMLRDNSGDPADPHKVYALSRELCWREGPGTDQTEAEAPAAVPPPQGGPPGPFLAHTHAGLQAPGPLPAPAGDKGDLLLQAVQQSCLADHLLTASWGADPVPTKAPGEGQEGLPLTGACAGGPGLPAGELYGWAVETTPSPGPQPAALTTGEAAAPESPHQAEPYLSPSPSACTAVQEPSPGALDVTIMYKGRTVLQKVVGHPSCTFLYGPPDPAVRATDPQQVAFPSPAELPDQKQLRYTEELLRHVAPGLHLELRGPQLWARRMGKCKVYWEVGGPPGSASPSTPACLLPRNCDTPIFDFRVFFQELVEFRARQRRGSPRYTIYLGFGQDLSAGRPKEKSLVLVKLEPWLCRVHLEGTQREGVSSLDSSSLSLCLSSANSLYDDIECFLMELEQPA
Method: protein-binding microarray
Molecule type: double-stranded DNA, one strand shown
Matrix: in vitro
Concentration: 2200 nM top
Setting: 60-bp whole probe
Added: salmon DNA 0.4 mg/ml
Relative to: random background probes
Direction: higher = stronger binding
Shared flanks, not repeated: GCCTAGCAC … GTCTTGATTCGCTTGACGCTGCTG
Under “fitted relative affinity”, `TTAGATTTCCGTTCCGATTAGTGCTAG` is recorded as 2.92 z-score.
`GACGGTTTCGGTCACGGGACGTGCTAG` — result for “fitted relative affinity”: 3.46 z-score.
Under “fitted relative affinity”, `GACGGTTTCGGTTCCAGGACGTGCTAG` is recorded as 11 z-score.
For `TTACCTCTCACGCATCTGAAAGTGCTA`, “fitted relative affinity” read 1.54 z-score.
Under “fitted relative affinity”, `TAAGATTCCAGTTTCGATTAGTGCTAG` is recorded as 6.69 z-score.
`TTAGGTTTCCTTCTCCGTTAGTGCTAG` — result for “fitted relative affinity”: 2.52 z-score.
Under “fitted relative affinity”, `GTTTTACTTTCTATCTCTGTGTGCTAG` is recorded as 6.44 z-score.

Other studies, line by line
`PhoQ, residues 284 288 289 292 302 303 SLANIV` gave a fold induction of 14.8 (PhoP, residues 12 14 15 18 19 NMSFL (Escherichia coli, UniProt P23836); Sort-seq, measured: YFP reporter; E. coli; PhoQ-PhoP variant library, added: 10 µM Mg2+; relative to: high Mg2+ state, higher = stronger signaling).

For quick reference, copied from above (block 2):
`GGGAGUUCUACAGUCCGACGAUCGAGGAAAGAUAAGCUCUUCGUGGUGCCCACGAUGCUCAGGUUUGGUAACCCGGGAGUGUUCCCAGGUGGCCUUAGAAAGCAAAGCUUGUAACUGGCAAGGGAUGAUGUCAUGGAAUUCUCGGGUGCCAA` — result for “RBNS enrichment (R)”: 0.772.
